{"data": "Measurements of several laboratories", "note": "Each line is one published result; not all experiments were run side by side. Values joined by “and” are separate records of one study, mostly repeats; a detail may differ. Numbers after ± are the reported error."}
{"SMILES": "Cc1nc(N)nc2c1C(=O)N[C@@H](c1ccc(F)cc1-c1cccc(O[11CH3])n1)C2", "test": "ex vivo biodistribution", "system": "healthy mice, bone", "conditions": "60 min post-injection, baseline, vehicle pre-treatment", "endpoint": "SUV", "result": "0.6 ± 0.4"}
{"SMILES": "O=C(c1ccccc1)N1C(c2ccc(OCC3CCN(CCCF)C3)cc2)c2ccc(O)cc2CC12CC2 (stereo not drawn)", "system": "C57BL/6J mouse, plasma", "conditions": "oral, 25 mg/kg", "endpoint": "Cmax", "result": "674 ng/mL"}
{"SMILES": "CC[C@H](C)[C@@H]1NC(=O)[C@H](Cc2ccccc2)NC(=O)CCSCc2cccc(c2)CSCCNC(=O)[C@H](Cc2c[nH]cn2)NC(=O)[C@H](Cc2ccc(O)cc2)NC(=O)[C@H](CC(=O)O)NC(=O)[C@H](Cc2ccc(F)cc2)NC(=O)[C@H](CC(C)C)NC(=O)[C@H](CCCCN)NC1=O", "test": "PAMPA", "conditions": "200 µM, 5 h, pH 7.4", "endpoint": "membrane retention", "result": "< 0.21%"}
{"SMILES": "O=C(NS(=O)(=O)c1cccs1)c1cc2ccccc2n1Cc1ccc(Br)c2ccccc12", "system": "KM mouse, chronic hyperuricaemia model", "conditions": "dose not given, day 26", "endpoint": "body weight", "result": "37.6 g and 40.5 g and 38.9 g and 37.9 g and 35.6 g and 37.1 g"}
{"SMILES": "COC(=O)C(C)n1nc(Cn2cc3cc(OCC[18F])c(Cl)cc3n2)c2ccccc2c1=O (racemic)", "system": "rat, plasma", "conditions": "150 min", "endpoint": "parent compound", "result": "0%"}
{"SMILES": "CCCCN1C(=O)c2cccc3c(NCCCCN4CCOCC4)ccc(c23)C1=O", "system": "ethylene glycol", "endpoint": "emission maximum", "result": "544 nm"}
{"SMILES": "O=C(O)CCCOc1ccc([18F])cc1-c1cc(-c2ccccc2C(F)(F)F)n(-c2ccccc2)n1", "test": "OLINDA/EXM extrapolation from mouse", "system": "human adult, total body", "endpoint": "absorbed radiation dose", "result": "12.3 µGy/MBq"}
{"SMILES": "C/C(N)=N/C(=N\\S(=O)(=O)c1ccc(C(F)(F)F)cc1)N1C[C@H](c2ccccc2)C(c2ccc(Cl)cc2)=N1", "system": "beagle dog, plasma", "conditions": "oral, 24 mg/kg", "endpoint": "Cmax", "result": "1780 ng/mL"}
{"SMILES": "CCCCN1C(=O)c2cccc3c(NCCCN4CCOCC4)ccc(c23)C1=O", "system": "ethyl acetate", "endpoint": "emission maximum", "result": "509 nm"}
{"SMILES": "COc1cccc(OC)c1-c1cc(C(=O)NC2(C(=O)O)C3CC4CC(C3)CC2C4)nn1-c1ccc(C(=O)NCCNC(=O)[C@H](CCCCNC(=O)[C@H](CC(C)C)NC(=O)C2OC2C(=O)O)NC(=O)CN2CCN(CC(=O)[O-])CCN(CC(=O)[O-])CCN(CC(=O)[O-])CC2)cc1C(C)C.[177Lu+3] (mixture of isomers)", "system": "mouse HT-29 xenograft", "conditions": "24 h, biodistribution", "scale": "relative to: tumour over pancreas", "endpoint": "tumour-to-pancreas ratio", "result": 12.7}
{"SMILES": "C=C[C@]1(C)C[C@@H](OC(=O)CSc2ccc(NC(=O)c3ccco3)cc2)[C@]2(C)[C@H](C)CC[C@]3(CCC(=O)[C@H]32)[C@@H](C)[C@@H]1O", "system": "Mycoplasma gallisepticum-infected chickens, plasma", "conditions": "intramuscular, 80 mg/kg, 4 h", "endpoint": "plasma concentration", "result": "0.315 µg/mL and 0.636 µg/mL and 0.6 µg/mL and 0.564 µg/mL and 0.964 µg/mL and 1.08 µg/mL and 0.999 µg/mL and 0.596 µg/mL"}
{"SMILES": "CN[C@H]1CC[C@H]([C@@]2(C)Oc3c(Cl)cc(C(=O)NCc4c(C)cc(C)[nH]c4=O)c(C)c3O2)CC1", "test": "radiochromatography", "system": "human, feces", "conditions": "oral, 200 mg", "scale": "relative to: dose", "endpoint": "fecal excretion", "result": "3.2% and 2.3% and 1.5%"}
{"SMILES": "COc1ccc(F)cc1C(=O)NCc1ccc(-c2nn([C@@H](C)C(F)(F)F)c(N)c2C(N)=O)cc1", "system": "human, plasma", "conditions": "intravenous, 22 µg", "endpoint": "hepatic metabolic clearance", "result": "1.33 L/h"}
{"SMILES": "COc1cccc(OC)c1-c1cc(C(=O)NC2(C(=O)O)C3CC4CC(C3)CC2C4)nn1-c1ccc(C(=O)N(C)CCOCCN(C)C(=O)[C@H](CCCCNC(=O)[C@H](CC(C)C)NC(=O)C2OC2C(=O)O)NC(=O)CN2CCN(CC(=O)[O-])CCN(CC(=O)[O-])CCN(CC(=O)[O-])CC2)cc1C(C)C.[177Lu+3] (mixture of isomers)", "system": "mouse HT-29 xenograft", "conditions": "72 h, biodistribution", "scale": "relative to: tumour over pancreas", "endpoint": "tumour-to-pancreas ratio", "result": 18.9}
{"SMILES": "CCCCN1C(=O)c2cccc3c(NCCCCCCCCCCN4CCOCC4)ccc(c23)C1=O", "system": "chloroform", "endpoint": "emission maximum", "result": "511 nm"}
{"SMILES": "COc1ccc(CNc2nc([C@H]3CC[C@H](C(=O)O)CC3)nc3sc4ccccc4c23)cc1Cl", "system": "NSG mice", "conditions": "dose not given, day 2", "endpoint": "body weight", "result": "22.1 g and 18.9 g and 21.4 g and 22.8 g"}
{"SMILES": "C=C(NC(=O)c1csc(-c2nc3c(cc2O)-c2nc(cs2)C(=O)NC(C(C)O)C(=O)NC(=C(C)OC)c2nc(cs2)C(=O)NC2c4nc(cs4)C(=O)NC(COC(=O)c4c5c6c(cccc6n4O)COC(=O)C(OC4CC(C)(O)C(N(C)C)C(C)O4)C2OC5)c2nc-3cs2)n1)C(N)=O (stereo not drawn)", "system": "Sprague-Dawley rats, both sexes, plasma", "conditions": "intravenous infusion, 6 mg/kg, day 7, multiple dosing", "endpoint": "AUC(0-tau)", "result": "1600 ± 237 ng·h/mL"}
{"SMILES": "Cc1cc(-c2ccc(C(=O)[C@@H]3CCCC[C@H]3C(=O)Nc3cnn4c3C(=O)NCC4)cc2)[nH]n1", "system": "human, urine", "conditions": "oral, 200 mg, 0-192 h", "scale": "relative to: dose", "endpoint": "cumulative radioactivity recovery", "result": "6.33% and 5.62% and 4.97% and 4.93% and 6.8% and 6.72%"}
{"SMILES": "O=C(Nc1cnccc1-c1ccc([18F])cc1)c1ccnc(NC(=O)C2CC2)c1", "system": "FVB/NJ mice (both sexes), pancreas", "conditions": "intravenous, dose not given, 120 min", "endpoint": "SUV", "result": 0.23}
{"SMILES": "Cc1ccc(OCC(=O)N(Cc2cccs2)c2ccn[nH]2)cc1", "system": "dog plasma", "conditions": "750 ng/mL, 0.5 h, 37 °C, unit not given", "scale": "relative to: time zero", "endpoint": "remaining compound", "result": 113}
{"SMILES": "Cc1cc(NC(=O)[C@H](O)c2cc(F)cc(F)c2)ccc1-c1cnc(N)c(C(=O)NC(C)C)c1", "system": "female nude mouse, plasma", "conditions": "oral, 3 mg/kg, single dose", "endpoint": "Tmax", "result": "1 h"}
{"SMILES": "COc1cccc(OC)c1-c1cc(C(=O)NC2(C(=O)O)C3CC4CC(C3)CC2C4)nn1-c1ccc(C(=O)N(C)CCOCCOCCN(C)C(=O)[C@H](CCCCNC(=O)[C@H](CC(C)C)NC(=O)C2OC2C(=O)O)NC(=O)CN2CCN(CC(=O)[O-])CCN(CC(=O)[O-])CCN(CC(=O)[O-])CC2)cc1C(C)C.[177Lu+3] (mixture of isomers)", "system": "mouse HT-29 xenograft", "conditions": "4 h, biodistribution", "scale": "relative to: tumour over pancreas", "endpoint": "tumour-to-pancreas ratio", "result": 7.52}
{"SMILES": "CC(C)(O)c1ncc([S@](N)(=O)=NC(=O)Nc2c3c(cc4c2CCC4)CCC3)s1", "system": "human plasma", "conditions": "room temperature", "endpoint": "stability time", "result": "≥ 24 h"}
{"SMILES": "Cc1cnc2nc1Nc1cccc(c1)COC/C=C/COCc1cc(ccc1OCCN1CCOCC1)N2", "system": "BALB/c mice, rhEPO-induced polycythemia", "conditions": "75 mg/kg, day 4", "endpoint": "body weight", "result": "18.9 g and 17.4 g and 19.1 g and 19.3 g and 20.4 g and 17.9 g"}
{"SMILES": "O=C([O-])CN1CCN(CC(=O)[O-])CCN(C(CO)C(O)CO)CCN(CC(=O)[O-])CC1.[Dy+3] (stereo not drawn)", "test": "ICP-MS", "system": "female cynomolgus monkey, plasma", "conditions": "intravenous bolus, 0.1 mmol/kg, lanthanide mixture, geometric mean", "endpoint": "AUC(0-inf)", "result": "911 µmol·h/L"}
{"SMILES": "Cc1[nH]nc2c1N=C(c1ccccc1Cl)c1cnc(N3CCOCC3)cc1N2", "system": "nude mouse, HCC1806 xenograft, tumor", "conditions": "oral, 15 mg/kg once daily", "endpoint": "AUC(0-last)", "result": "2900 ng·h/mL"}
{"SMILES": "CN(C)c1ccc(/C=C/c2cc(=O)cc(/C=C/c3ccc(N(C)C)cc3)o2)cc1", "system": "acetonitrile", "conditions": "10 µM, 298 K", "endpoint": "emission maximum", "result": "559 nm"}
{"SMILES": "[123I]c1ccc2nc(-c3ccc(-n4ccnn4)nc3)cn2c1", "system": "male Wistar rat, pancreas", "conditions": "intravenous, 4 MBq, 6 h", "endpoint": "tracer uptake", "result": "0.046 %ID/g"}
{"SMILES": "CCCCN1C(=O)c2cccc3c(NCCN4CCOCC4)ccc(c23)C1=O", "system": "acetonitrile", "endpoint": "emission maximum", "result": "528 nm"}
{"SMILES": "Cc1ccc(CN2C(=O)/C(=N\\c3ccc(Cl)cc3Br)c3ccccc32)cc1", "system": "mouse, blood", "conditions": "100 mg/kg", "endpoint": "RDW", "result": "15.8 ± 0.25%"}
{"SMILES": "CC(=O)N([O-])CCCCCNC(=O)CCC(=O)N([O-])CCCCCNC(=O)CCC(=O)N([O-])CCCCCN.[89Zr+4]", "test": "radio-TLC", "system": "aqueous buffer", "conditions": "1 d, pH 7.2, 37 °C, 89Zr-labelled complex, together with: MgCl2 10-fold excess", "endpoint": "intact complex", "result": "98.4 ± 1%"}
{"SMILES": "CCCC[C@H](NC(=O)CNC(=O)CNC(=O)[C@H](CCCCNC(=O)[C@H](CC(=O)O)NC(=O)C(C)c1ccc(CC(C)C)cc1)NC(=O)CN1CCN(CC(=O)O)CCN(CC(=O)O)CCN(CC(=O)O)CC1)C(=O)N[C@H]1CC(=O)NCCCC[C@@H](C(N)=O)NC(=O)[C@H](Cc2c[nH]c3ccccc23)NC(=O)[C@H](CCCNC(=N)N)NC(=O)[C@@H](Cc2ccccc2)NC(=O)[C@H](Cc2c[nH]cn2)NC1=O (stereo partly drawn) [lutetium-177 labelled]", "system": "C57 mouse, urine", "conditions": "intravenous, 0.037 MBq, 4 h", "endpoint": "excretion", "result": "80.2 ± 2.02%"}
{"SMILES": "COc1ccnc(C(=O)N[C@H]2COC(=O)[C@H](Cc3ccccc3)[C@@H](OC(=O)C(C)C)[C@H](C)OC2=O)c1O", "test": "soil adsorption", "system": "clay loam soil", "conditions": "pH 7.2, organic carbon 4.4 %", "endpoint": "Freundlich coefficient KF", "result": "79.5 mL/g"}
{"SMILES": "O=S(=O)(NCc1ccncc1)c1ccc(C2CCCCC2)cc1", "system": "wild-type littermate mouse", "conditions": "0.3 mg/kg", "scale": "relative to: vehicle", "endpoint": "open field speed change", "result": "3 ± 1 cm/s"}
{"SMILES": "CCC(C(=O)Nc1ccc(C(N)=O)c(F)c1)n1cc(OC)c(-c2cc(Cl)ccc2-n2cc(C(F)(F)F)nn2)cc1=O (stereo not drawn)", "system": "healthy male humans", "conditions": "50 mg, together with: omeprazole", "endpoint": "adverse events", "result": "28.6%"}
{"SMILES": "C=CC(=O)Nc1cc(Nc2nccc(-c3cn(C)c4ccccc34)n2)c(OC)cc1N(C)CCNC", "test": "storage stability", "system": "human plasma", "conditions": "30 d, -80 °C, LLOQ level", "endpoint": "recovery", "result": "98.2%"}
{"SMILES": "CCCCN1C(=O)c2cccc3c(NCCCCCN4CCOCC4)ccc(c23)C1=O", "system": "ethyl acetate", "endpoint": "fluorescence lifetime", "result": "9.6 ns"}
{"SMILES": "CN(C(=O)c1ccnc(N2Cc3cn(Cc4ccc(F)cc4)nc3C2)n1)C1CCCCC1", "test": "metabolic stability", "system": "rat, liver microsomes", "endpoint": "half-life", "result": "< 1 min"}
{"SMILES": "CCC(CC)CNC(=N)NC(=N)NCCCCCCNC(=N)NC(=N)NCC(CC)CC", "test": "metabolic stability", "system": "monkey, liver microsomes", "conditions": "2 µM", "endpoint": "scaled CLint", "result": "24.6 mL/min/kg"}
{"SMILES": "O=C(c1cccc(N2Cc3cn(Cc4ccc(F)cc4)nc3C2)c1)N1CCNCC1", "test": "metabolic stability", "system": "rat, liver microsomes", "endpoint": "half-life", "result": "13 min"}
{"SMILES": "CN1Cc2c(NCc3ccc(CN4CCN(c5ccc(C#N)c(F)c5)CC4)cc3)cccc2C(=O)N1C1CCC(=O)NC1=O (stereo not drawn)", "system": "mouse xenograft, lung", "conditions": "dose not given", "endpoint": "organ weight", "result": "149 mg"}
{"SMILES": "O=C(Nc1cnccc1-c1ccc([18F])nc1)c1ccnc(NC(=O)C2CC2)c1", "system": "mice, transgenic, GSK-3β, early-stage, large intestine", "conditions": "intravenous, dose not given, 120 min, together with: tariquidar 15 mg/kg i.v. pre-dose", "endpoint": "SUV", "result": 0.333}
